Measured values collected from several papers.
Compare with care: the assays were run in different laboratories. “And” joins repeats or separate records; there may be more than shown. Numbers after ± are the reported error.

O=C(CNc1nc(NS(=O)(=O)c2ccccc2)ncc1-c1nc2ccccc2s1)c1ccc(Cl)cc1 — maximum non-toxic concentration (FRhK-4; cytotoxicity; 72 h): 110 µg/mL
O=C(Nc1cc(F)c(F)c(F)c1)c1ccc(F)c(S(=O)(=O)NCc2ccc(B(O)O)cc2)c1 — CC50 (HepAD38 cells; CCK-8; 6 days): 6.29 ± 0.36 µM
COc1ccc(-c2nc(NS(=O)(=O)c3ccc(C)cc3)nc(N)c2-c2nc3ccccc3s2)cc1 — maximum non-toxic concentration (FRhK-4; cytotoxicity; 72 h): 90 µg/mL
CSc1c(-c2nc3ccccc3[nH]2)c(N)n(NS(=O)(=O)c2ccccc2)c(=O)c1C#N — maximum non-toxic concentration (FRhK-4; 72 h): 100 µg/mL
COc1cc2ncnc(Nc3ccc(Oc4ccccc4)cc3C)c2cc1OC.O=C(O)C(F)(F)F — viability fraction (SW-620 (KRAS G12V); resazurin; concentration not given, 72 h, added: trametinib 0 nM): 0.996 and 1 and 0.99 and 0.928 and 0.858 and 0.954 and 0.939
CN(CCC#N)C(=O)c1ccc(C2CCCCC2)cc1 — hepatic clearance (hepatocyte stability; cryopreserved rat hepatocytes; 1 µM): 47 mL/min/kg
CCOC(=O)c1cc(C#N)c(=O)n(NS(=O)(=O)c2ccc(C)cc2)c1N — maximum non-toxic concentration (FRhK-4; 72 h): 90 µg/mL
COc1cc2ncnc(Nc3ccc(Oc4ccccc4)c(C)c3C)c2cc1OC.Cl — viability fraction (SW-620 (KRAS G12V); resazurin; concentration not given, 72 h, added: trametinib 0 nM): 0.838 and 0.846 and 0.844 and 0.808 and 1.02 and 0.921 and 0.751 and 0.898
O=c1cc(-c2ccc(O)cc2)oc2c([C@@H]3O[C@H](CO)[C@@H](O)[C@H](O)[C@H]3O)c(O)cc(O)c12 — Papp increase (Caco-2 monolayer; transwell permeability; 100 µg/mL, apical to basolateral, HBSS, DMSO 1%, added: digoxin 5 ng/mL; relative to: digoxin alone): 15.3%
Cc1ccc(S(=O)(=O)Nn2c(N)c(C#N)cc(C#N)c2=O)cc1 — maximum non-toxic concentration (FRhK-4; 72 h): 100 µg/mL
Cc1cc2ccccc2n1CCNC(=O)c1ccc2c(c1)n(C)c(=O)n2C — cytotoxic concentration (C6 glioma; cell viability): > 100 µM
Cc1ccc(S(=O)(=O)Nn2c(N)c(-c3nc4ccccc4s3)c3[nH]nc(N)c3c2=O)cc1 — maximum non-toxic concentration (FRhK-4; 72 h): 90 µg/mL
COC(=O)C1CCN(C(=O)c2cccc(NCc3cnc4nc(N)nc(N)c4n3)c2)CC1 — CC50 (THP-1-derived macrophages; MTT): > 100 µM
Cc1ccc(-c2nc(NS(=O)(=O)c3ccc(C)cc3)nc(N)c2-c2nc3ccccc3s2)cc1 — maximum non-toxic concentration (FRhK-4; cytotoxicity; 72 h): 100 µg/mL
CC(=O)N(O)CCCCCNC(=O)CCC(=O)N(O)CCCCCNC(=O)CCC(=O)N(O)CCCCCN — cytotoxicity (LUHMES MT1G-HiBiT neurons, differentiated; concentration not given): toxic
CSc1nc(NS(=O)(=O)c2ccc(C)cc2)nc(N)c1-c1nc2ccccc2s1 — maximum non-toxic concentration (FRhK-4; cytotoxicity; 72 h): 100 µg/mL
Cc1cc(C)c(CNC(=O)c2cc(Cl)c3c(c2C)O[C@@](C)([C@H]2CC[C@H](N(C)C)CC2)O3)c(=O)[nH]1 — Papp A to B (Caco-2; 1 µM): 0.395 ± 0.015 ×10⁻⁶ cm/s
COc1ccc(CNC(=O)c2ccc(CNCc3cnc4nc(N)nc(N)c4n3)cc2)cc1 — CC50 (THP-1-derived macrophages; MTT): 50 to 100 µM
Cc1ccc(S(=O)(=O)Nc2nc(N)c(-c3nc4ccccc4s3)c(-c3ccc(Cl)cc3)n2)cc1 — maximum non-toxic concentration (FRhK-4; cytotoxicity; 72 h): 100 µg/mL
CCSc1c(-c2nc3ccccc3s2)c(N)n(NS(=O)(=O)c2ccccc2)c(=O)c1C#N — maximum non-toxic concentration (FRhK-4; 72 h): 120 µg/mL
Nc1nc(N)c2nc(CNc3cccc4ccccc34)cnc2n1 — CC50 (THP-1-derived macrophages; MTT): 12.5 to 25 µM
CN1CCN(c2ccc3[nH]c(-c4ccc5[nH]c(-c6cccc(OCCCC(=O)N(C)CCCCN(CC(N)=O)C(=O)[C@H](Cc7ccc(O)cc7)NC(=O)[C@H](Cc7ccc(O)cc7)NC(=O)[C@H](Cc7ccc(O)cc7)NC(=O)[C@H](Cc7ccc(O)cc7)NC(=O)CCCOc7cccc(-c8nc9ccc(-c%10nc%11ccc(N%12CCN(C)CC%12)cc%11[nH]%10)cc9[nH]8)c7)c6)nc5c4)nc3c2)CC1 — toxicity (human DM1 myotubes; 5 µM): toxic
COc1cc(Oc2ccc(CNCc3cnc4nc(N)nc(N)c4n3)cc2)cc(OC)c1OC — CC50 (THP-1-derived macrophages; MTT): 50 to 100 µM
COc1ccc(-c2nc(NS(=O)(=O)c3ccccc3)nc(N)c2-c2nc3ccccc3s2)cc1 — maximum non-toxic concentration (FRhK-4; cytotoxicity; 72 h): 100 µg/mL
Cc1cc(C(=O)NC(C)(C)COc2cccc3c2C(N)=NS(=O)(=O)N3)cc(C)n1 — cytotoxicity (human peripheral blood lymphocytes; CBPI, concurrent micronucleus test; 2000 µg/mL, 24 h; relative to: vehicle control): 5%
C/C=C/C=C/C(=O)O — CC50 (PH5CH8 (oleate-loaded); 72 h, added: sodium oleate 1 mM): > 10 µM
O=C(c1ccc(C2CCCCC2)cc1)N1CC(O)C1 — hepatic clearance (liver microsome stability; mouse liver microsomes; 1 µM): 82 mL/min/kg
CSc1c(-c2nc3ccccc3s2)c(N)n(NS(=O)(=O)c2ccc(C)cc2)c(=O)c1C#N — maximum non-toxic concentration (FRhK-4; 72 h): 110 µg/mL
COC(=O)C1CCN(C(=O)c2ccc(N(CCO)Cc3cnc4nc(N)nc(N)c4n3)cc2)CC1 — CC50 (THP-1-derived macrophages; MTT): > 100 µM
Nc1nc(NS(=O)(=O)c2ccccc2)ncc1-c1nc2ccccc2s1 — maximum non-toxic concentration (FRhK-4; cytotoxicity; 72 h): 100 µg/mL
Cc1ccc2c(c1)C(=O)[C@]1(O)CCN(c3ccc4nc(C)ccc4c3)C1=N2.Cl — cytotoxicity (human and murine GBM lines; CellTiter-Glo; 10 µM, 96 h): > 90%
CC1(C)[C@@H](O[C@H]2O[C@H](C(=O)O)[C@@H](O)[C@H](O)[C@H]2O[C@@H]2O[C@H](C(=O)O)[C@@H](O)[C@H](O)[C@H]2O)CC[C@]2(C)[C@H]3C(=O)C=C4[C@@H]5C[C@@](C)(C(=O)O)CC[C@]5(C)CC[C@@]4(C)[C@]3(C)CC[C@@H]12 — transport rate (mock HEK293; 50 µM, 10 min): 1.9 ± 0.4 pmol/min/mg protein
COc1cc(/C=C/C(=O)/C=C/c2ccc(O)c(OC)c2)ccc1O — viability (WRL68; MTT; 0.8 µg/mL, 48 h, 10% FBS): 84% and 84.3%
Cc1ccc(-c2nc(N)nc(N)c2-c2nc3ccccc3s2)cc1 — maximum non-toxic concentration (FRhK-4; cytotoxicity; 72 h): 110 µg/mL
CCN(CC)C(=S)SSC(=S)N(CC)CC — cytotoxicity (LUHMES MT1G-HiBiT neurons, differentiated; concentration not given): toxic
CCN(Cc1cnc2nc(N)nc(N)c2n1)c1ccc(C(=O)N2CCC(C(=O)OC)CC2)cc1 — CC50 (THP-1-derived macrophages; MTT): > 100 µM
CC(=O)N[C@H]1[C@H]([C@H](O)[C@H](O)CO)OC(C(=O)O)=C[C@@H]1N=C(N)N — Papp (Caco-2 monolayer; HBSS without Ca2+; 180 min, basolateral to apical): 2.57 ± 0.206 ×10⁻⁶ cm/s
O=C(Nc1ccc(Cl)c(Br)c1)c1ccc2c(c1)C(=O)NC2=O — viability (SH-SY5Y; MTT; 1 to 20 µM, 24 h): not toxic
CC1(C)CC[C@]2(C(=O)O)CC[C@]3(C)C(=CC[C@@H]4[C@@]5(C)CC[C@H](O)C(C)(C)[C@@H]5CC[C@]43C)[C@@H]2C1 — cytotoxicity (N2a APP695; MTT; 5 µM): not toxic
COc1cc(/C=C/C(=O)C(=Cc2ccccc2)C(=O)/C=C/c2ccc(O)c(OC)c2)ccc1O — viability (WRL68; MTT; 0.4 µg/mL, 48 h, 10% FBS): 11.9% and 12.4%
CN(Cc1cnc2nc(N)nc(N)c2n1)c1ccc(C(=O)N2CCCCC2)cc1 — CC50 (THP-1-derived macrophages; MTT): > 100 µM
COC[C@@H](CC(C)C)NC(=O)c1ccc(C)c(C)c1 — cells with aberrations (primary human lymphocytes; item: structural aberrations; 55 µg/mL, 20 h, without S9): 0%
Nc1nc(N)c2nc(CNc3ccc(C(=O)N4CCC(C(=O)O)CC4)cc3)cnc2n1 — CC50 (THP-1-derived macrophages; MTT): > 100 µM
COc1cc(/C=C2\CC/C(=C\c3ccc(O)c(OC)c3)C2=O)ccc1O — viability (WRL68; MTT; 25.0 µg/mL, 48 h, 10% FBS): 14.3% and 13.8%

Excerpt of the above:
O=C(Nc1ccc(Cl)c(Br)c1)c1ccc2c(c1)C(=O)NC2=O — viability (SH-SY5Y; MTT; 1 to 20 µM, 24 h): not toxic
O=C(Nc1cc(F)c(F)c(F)c1)c1ccc(F)c(S(=O)(=O)NCc2ccc(B(O)O)cc2)c1 — CC50 (HepAD38 cells; CCK-8; 6 days): 6.29 ± 0.36 µM
COC[C@@H](CC(C)C)NC(=O)c1ccc(C)c(C)c1 — cells with aberrations (primary human lymphocytes; item: structural aberrations; 55 µg/mL, 20 h, without S9): 0%
O=c1cc(-c2ccc(O)cc2)oc2c([C@@H]3O[C@H](CO)[C@@H](O)[C@H](O)[C@H]3O)c(O)cc(O)c12 — Papp increase (Caco-2 monolayer; transwell permeability; 100 µg/mL, apical to basolateral, HBSS, DMSO 1%, added: digoxin 5 ng/mL; relative to: digoxin alone): 15.3%
CSc1nc(NS(=O)(=O)c2ccc(C)cc2)nc(N)c1-c1nc2ccccc2s1 — maximum non-toxic concentration (FRhK-4; cytotoxicity; 72 h): 100 µg/mL
